Assay results collected from several papers.
Each line is one published result; not all experiments were run side by side. Numbers after ± are the reported error. In brackets after ≈: the same amount, converted by molar mass.
UniProt P50052, sequence (whole entry, unmodified, looked up): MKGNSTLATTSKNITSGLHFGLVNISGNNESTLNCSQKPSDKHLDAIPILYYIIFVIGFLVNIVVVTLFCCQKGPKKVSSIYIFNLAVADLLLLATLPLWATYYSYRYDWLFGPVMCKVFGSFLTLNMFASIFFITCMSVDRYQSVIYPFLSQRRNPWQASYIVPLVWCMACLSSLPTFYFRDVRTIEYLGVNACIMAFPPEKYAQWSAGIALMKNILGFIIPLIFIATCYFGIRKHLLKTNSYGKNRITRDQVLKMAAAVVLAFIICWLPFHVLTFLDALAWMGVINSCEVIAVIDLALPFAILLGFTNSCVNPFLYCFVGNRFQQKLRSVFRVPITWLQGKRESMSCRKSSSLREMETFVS
UniProt P47872, sequence (whole entry, looked up): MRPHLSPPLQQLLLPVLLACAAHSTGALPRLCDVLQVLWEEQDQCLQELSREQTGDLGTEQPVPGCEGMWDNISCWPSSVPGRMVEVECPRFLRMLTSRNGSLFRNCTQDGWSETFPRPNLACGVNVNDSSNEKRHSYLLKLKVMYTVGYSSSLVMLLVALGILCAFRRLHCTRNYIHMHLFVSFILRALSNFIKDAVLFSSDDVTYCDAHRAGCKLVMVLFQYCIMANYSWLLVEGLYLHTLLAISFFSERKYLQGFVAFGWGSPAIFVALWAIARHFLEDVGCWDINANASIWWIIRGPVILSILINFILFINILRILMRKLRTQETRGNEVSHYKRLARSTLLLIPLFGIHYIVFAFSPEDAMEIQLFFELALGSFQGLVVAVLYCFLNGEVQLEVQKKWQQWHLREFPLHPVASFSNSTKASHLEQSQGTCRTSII
UniProt Q9CPV9, sequence (whole entry, looked up): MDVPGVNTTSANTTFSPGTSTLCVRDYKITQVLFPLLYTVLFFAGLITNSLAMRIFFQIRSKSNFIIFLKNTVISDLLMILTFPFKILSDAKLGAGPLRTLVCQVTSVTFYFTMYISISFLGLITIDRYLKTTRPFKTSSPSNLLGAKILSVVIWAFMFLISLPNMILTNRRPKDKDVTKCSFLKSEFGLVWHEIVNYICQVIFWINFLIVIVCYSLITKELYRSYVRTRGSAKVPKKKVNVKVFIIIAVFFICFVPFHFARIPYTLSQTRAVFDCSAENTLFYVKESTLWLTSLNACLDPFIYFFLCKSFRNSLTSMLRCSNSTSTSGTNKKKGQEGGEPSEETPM

SMILES | tested on | assay | system | conditions | scale | measurement | value
COc1ccc(-c2cc(C(F)(F)F)nc(NCc3ccccc3)n2)cc1OC | Secretin receptor (SCTR, Homo sapiens, UniProt P47872) | increase of tracer binding, TR-FRET | HEK293 membranes | added: Fluo-Sec 6 nM |  | EC50 | 4400 ± 1800 nM
CN1/C(=C/C=C/c2cc(-c3ccccc3)cc(-c3ccccc3)[o+]2)C(C)(C)c2ccccc21 |  |  | male CD1 mice, plasma | intravenous, 1 mg/kg |  | terminal half-life | 13.6 min
COc1cc2c(CCNC(C)=O)c[nH]c2cc1OS(=O)(=O)O | Abcg2 (mouse) |  | FVB/N wild-type male mice | oral, 10 mg/kg melatonin, 1 h |  | plasma concentration | 3.39 ± 1.11 ng/mL
CCCCCCCCCCCC(=O)NCCC(=O)N[C@H](CCCNC(=N)N)C(=O)N[C@H](CCCNC(=N)N)C(=O)N[C@H](CCCNC(=N)N)C(=O)N[C@H](CCCNC(=N)N)C(=O)N[C@H](CCCNC(=N)N)C(=O)N[C@@H](CCCNC(=N)N)C(=O)N[C@@H](CCCNC(=N)N)C(=O)N[C@@H](CCCNC(=N)N)C(=O)N[C@@H](CCCNC(=N)N)C(=O)N[C@@H](CCCCNC(=S)Nc1ccc2c(c1)C(=O)OC21c2ccc(O)cc2Oc2cc(O)ccc21)C(N)=O | Jurkat | RP-HPLC fluorescence, refers to: Arg peptide metabolite | culture medium | 6 h |  | peak area | 56.2%
N#Cc1cc(C(=O)OCC[18F])c(C(F)(F)F)nc1N1CCN(C(=O)Cc2ccccc2)CC1 | P2Y purinoceptor 12 (P2ry12, Mus musculus, UniProt Q9CPV9) | PET | mouse aged 40 weeks | 11.1 MBq |  | peak brain SUV | 1.96 ± 0.18
CNC(=O)c1ccc(N2CCN(Cc3ccc4nc(C)c(=O)[nH]c4c3F)CC2)c([18F])n1 | Poly [ADP-ribose] polymerase 1 (Macaca mulatta, UniProt H9FQ77) |  | male rhesus monkey, cerebellum | intravenous, dose not given, baseline PET |  | radioactivity uptake | 1.2 SUV
[64Cu+2].c1ccc(CNCc2ccc(CN3CCCN4CCNCCCN(CC4)CC3)cc2)nc1 | CXCR4 |  | NOD/SCID mouse, U87 and U87-stb-CXCR4 xenografts, heart | iv, 90 min, ex vivo, added: AMD3465 25 mg/kg sc before tracer |  | tissue uptake | 1.42 ± 0.04 %ID/g
Nc1c(C(=O)c2ccc(Cl)cc2)sc(S)c1-c1nc2ccccc2s1 | FRhK-4 |  |  | 72 h |  | non-toxic concentration | 80 µg/mL
[64Cu+2].c1cnc(CNCc2ccc(CN3CCCN4CCNCCCN(CC4)CC3)cc2)nc1 | CXCR4 |  | NOD/SCID mouse, U87 and U87-stb-CXCR4 xenografts, blood | iv, 120 min, ex vivo |  | tissue uptake | 1.33 ± 0.14 %ID/g
COc1cc(CCC(C)=O)ccc1O | mAb 4-AT4 | antibody binding, indirect competitive ELISA |  | added: coating antigen hapten 5-OVA |  | IC50 | > 4 µg/mL
COc1ccc(CNc2nc(N3CCC[C@H]3CO)ncc2C(=O)NNC(=O)c2cnc(N3CCC[C@H]3CO)nc2NCc2ccc(OC)c(Cl)c2)cc1Cl | Salmonella typhimurium | Ames test | TA98, TA100, TA1535, TA102, TA97a | 62.5 to 1000 µg/plate, with and without S9 |  | mutagenicity | negative
CCCCC/C=C/C(=O)CCc1ccc(O)c(OC)c1 | mAb 4-AT4 | antibody binding, indirect competitive ELISA |  | added: coating antigen hapten 4-OVA |  | IC50 | 0.0614 µg/mL (≈ 0.222 µM)
CCCC[C@H](NC(=O)[C@H](CC(C)C)N(C)C(=O)CNC(=O)[C@@H](NC(=O)[C@H](Cc1ccccc1)NC(=O)[C@H](CCCCN)NC(=O)[C@@H](N)CC(=O)O)C(C)C)C(N)=O |  |  | rat, plasma | IV, 100 µg/kg |  | time to below quantitation limit | ≤ 6 min
CC(=O)OC[C@H]1O[C@@H](Sc2sc(C(=O)c3ccc(Br)cc3)c(N)c2-c2nc3ccccc3s2)[C@H](OC(C)=O)[C@@H](OC(C)=O)[C@@H]1OC(C)=O | BGM | cytotoxicity |  | 72 h |  | maximum non-toxic concentration | 100 µg/mL
CC/C=C\C/C=C\C/C=C\C/C=C\C/C=C\CCCCOC(CC)C(=O)O (stereo not shown) |  | radioactivity, 14C-labelled | Wistar rat, male, whole blood | oral, 100 mg/kg, 1 h |  | tissue concentration | 24.6 µg equivalents/g tissue
CC(=O)OC[C@H]1O[C@@H](Sc2sc(C(=O)c3ccc(C)cc3)c(N)c2-c2nc3ccccc3s2)[C@H](OC(C)=O)[C@@H](OC(C)=O)[C@@H]1OC(C)=O | BGM | cytotoxicity |  | 72 h |  | maximum non-toxic concentration | 90 µg/mL
C=C1CC[C@H](OCCCNC(=O)CCOCCOCCOCCOCCOCCOCCOCCOCCOCCOCCOCCOCCOCCOCCOCCOCCOCCOCCOCCOCCOCCOCCOCCOCCOCCOCCOCCOCCOCCOCCOCCOCCOCCOCCOCCOCCNC(=O)CCN2C(=O)CC(SC[C@H](NC(=O)[C@H](Cc3ccccc3)NC(=O)[C@H](CC(N)=O)NC(=O)[C@H](Cc3c[nH]cn3)NC(=O)[C@@H](NC(=O)[C@H](CC(=O)O)NC(=O)[C@H](CCC(N)=O)NC(=O)[C@H](CC(C)C)NC(=O)[C@H](CCCCN)NC(=O)[C@H](CCCCN)NC(=O)[C@H](CCCNC(=N)N)NC(=O)[C@H](CC(C)C)NC(=O)[C@H](Cc3c[nH]c4ccccc34)NC(=O)[C@H](CCC(=O)O)NC(=O)[C@@H](NC(=O)[C@H](CCCNC(=N)N)NC(=O)[C@H](CCC(=O)O)NC(=O)[C@H](CCSC)NC(=O)[C@H](CO)NC(=O)[C@H](CC(N)=O)NC(=O)[C@H](CC(C)C)NC(=O)[C@H](Cc3c[nH]cn3)NC(=O)[C@H](CCCCN)NC(=O)CNC(=O)[C@H](CC(C)C)NC(=O)[C@H](CC(N)=O)NC(=O)[C@H](Cc3c[nH]cn3)NC(=O)[C@H](CCSC)NC(=O)[C@H](CC(C)C)NC(=O)[C@H](CCC(N)=O)NC(=O)[C@@H](NC(=O)[C@H](CCC(=O)O)NC(=O)[C@H](CO)NC(=O)[C@@H](NC(=O)[C@@H](N)CO)C(C)C)[C@@H](C)CC)C(C)C)C(C)C)C(N)=O)C2=O)C/C1=C/C=C1\CCC[C@]2(C)[C@@H]([C@H](C)CCCC(C)(C)O)CC[C@@H]12 (stereo partly shown) |  |  | Sprague Dawley rat | subcutaneous, 70 µg/kg daily, 21 days | relative to: 1 µg/kg dose | dose-normalized AUC | 0.96
COc1ccc2cc(-c3ccc(-c4ccc(C)cn4)nc3)oc2c1 |  |  | hexanes | added: quinine bisulfate reference |  | fluorescence quantum yield | 0.84
CCCc1nc2ccc(N(Cc3ccco3)C(=O)c3ccccc3)cc2c(=O)n1Cc1ccc(-c2ccccc2-c2nnn[nH]2)cc1 | Type-2 angiotensin II receptor (AGTR2, Homo sapiens, UniProt P50052, R182K) | ligand displacement, radioligand |  | cell membranes |  | Ki | 6.76 nM
O=C(O)CCC(NP(=O)(O)OCCC[C@@H](NC(=O)CC[C@H](NC(=O)CCCCCNC(=O)c1ccc([18F])cc1)C(=O)O)C(=O)O)C(=O)O (stereo partly shown) | CWR22Rv1 tumour model |  | host not given, kidney | 4 h, tumour-bearing |  | tracer uptake | 17.2 %ID/g
NS(=O)(=O)Nc1ncnc(OCCOc2ncc(Br)cn2)c1-c1ccc(Br)cc1 |  | metabolite formation | male Beagle dog, liver microsomes | 50 mg/kg daily for 4 weeks |  | Vmax | 998 ± 51 pmol/min/mg
CCc1nc2ccc(N(Cc3ccccc3)C(=O)c3cccs3)cc2c(=O)n1Cc1ccc(-c2ccccc2-c2nn[nH]n2)cc1 | Type-2 angiotensin II receptor (AGTR2, Homo sapiens, UniProt P50052, T178A) | ligand displacement, radioligand |  | cell membranes |  | Ki | 2.69 nM
